Experimental data pooled from the literature.
Numbered parts are unrelated; each lists some results of a single study.
UniProt Q9NQU5, sequence (whole entry, looked up): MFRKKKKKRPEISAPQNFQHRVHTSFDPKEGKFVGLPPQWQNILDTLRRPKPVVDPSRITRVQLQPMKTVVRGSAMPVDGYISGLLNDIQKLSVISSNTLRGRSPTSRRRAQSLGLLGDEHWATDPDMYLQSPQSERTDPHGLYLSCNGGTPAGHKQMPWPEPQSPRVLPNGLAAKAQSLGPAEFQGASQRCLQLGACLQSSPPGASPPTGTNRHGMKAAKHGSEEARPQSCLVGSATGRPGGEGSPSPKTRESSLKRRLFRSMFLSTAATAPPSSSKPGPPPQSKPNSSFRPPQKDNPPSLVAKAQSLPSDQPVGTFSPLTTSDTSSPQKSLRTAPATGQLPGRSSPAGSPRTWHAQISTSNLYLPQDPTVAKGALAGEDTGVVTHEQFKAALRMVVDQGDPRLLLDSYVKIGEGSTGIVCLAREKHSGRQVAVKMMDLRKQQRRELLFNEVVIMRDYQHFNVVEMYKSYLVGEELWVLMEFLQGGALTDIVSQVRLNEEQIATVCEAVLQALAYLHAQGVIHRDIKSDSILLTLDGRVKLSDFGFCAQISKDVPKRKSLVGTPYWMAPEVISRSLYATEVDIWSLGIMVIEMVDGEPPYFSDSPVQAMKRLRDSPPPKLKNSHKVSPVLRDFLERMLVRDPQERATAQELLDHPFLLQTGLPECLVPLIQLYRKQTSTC
UniProt P42336, sequence (whole entry, unmodified, looked up): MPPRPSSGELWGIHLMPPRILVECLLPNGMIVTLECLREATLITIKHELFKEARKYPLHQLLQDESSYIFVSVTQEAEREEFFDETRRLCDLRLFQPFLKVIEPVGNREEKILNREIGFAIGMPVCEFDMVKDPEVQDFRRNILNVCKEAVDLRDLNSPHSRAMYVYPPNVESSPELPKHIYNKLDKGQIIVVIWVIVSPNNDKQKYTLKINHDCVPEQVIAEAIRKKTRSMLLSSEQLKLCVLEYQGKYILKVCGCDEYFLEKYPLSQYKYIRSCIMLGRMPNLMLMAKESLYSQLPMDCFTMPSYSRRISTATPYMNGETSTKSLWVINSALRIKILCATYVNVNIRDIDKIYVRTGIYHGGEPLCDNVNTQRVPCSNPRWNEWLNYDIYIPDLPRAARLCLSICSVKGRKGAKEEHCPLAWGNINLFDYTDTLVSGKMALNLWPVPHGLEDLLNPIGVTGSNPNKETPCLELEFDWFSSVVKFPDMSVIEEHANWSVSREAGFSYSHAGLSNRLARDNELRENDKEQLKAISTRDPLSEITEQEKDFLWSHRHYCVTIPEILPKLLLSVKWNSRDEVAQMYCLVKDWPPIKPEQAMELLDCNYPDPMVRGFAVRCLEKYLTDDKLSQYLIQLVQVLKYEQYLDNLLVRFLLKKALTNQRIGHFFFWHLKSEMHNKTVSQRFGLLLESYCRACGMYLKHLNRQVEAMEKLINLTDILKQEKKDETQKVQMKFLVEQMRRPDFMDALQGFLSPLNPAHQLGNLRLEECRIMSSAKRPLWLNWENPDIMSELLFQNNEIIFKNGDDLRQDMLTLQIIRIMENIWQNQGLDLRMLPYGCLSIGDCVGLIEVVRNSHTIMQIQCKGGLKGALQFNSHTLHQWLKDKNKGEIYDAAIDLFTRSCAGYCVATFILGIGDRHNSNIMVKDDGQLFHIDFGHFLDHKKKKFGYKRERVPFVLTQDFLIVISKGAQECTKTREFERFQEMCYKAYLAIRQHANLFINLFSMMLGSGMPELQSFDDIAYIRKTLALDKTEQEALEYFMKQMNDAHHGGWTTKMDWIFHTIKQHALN
UniProt P51812, sequence (whole entry, looked up): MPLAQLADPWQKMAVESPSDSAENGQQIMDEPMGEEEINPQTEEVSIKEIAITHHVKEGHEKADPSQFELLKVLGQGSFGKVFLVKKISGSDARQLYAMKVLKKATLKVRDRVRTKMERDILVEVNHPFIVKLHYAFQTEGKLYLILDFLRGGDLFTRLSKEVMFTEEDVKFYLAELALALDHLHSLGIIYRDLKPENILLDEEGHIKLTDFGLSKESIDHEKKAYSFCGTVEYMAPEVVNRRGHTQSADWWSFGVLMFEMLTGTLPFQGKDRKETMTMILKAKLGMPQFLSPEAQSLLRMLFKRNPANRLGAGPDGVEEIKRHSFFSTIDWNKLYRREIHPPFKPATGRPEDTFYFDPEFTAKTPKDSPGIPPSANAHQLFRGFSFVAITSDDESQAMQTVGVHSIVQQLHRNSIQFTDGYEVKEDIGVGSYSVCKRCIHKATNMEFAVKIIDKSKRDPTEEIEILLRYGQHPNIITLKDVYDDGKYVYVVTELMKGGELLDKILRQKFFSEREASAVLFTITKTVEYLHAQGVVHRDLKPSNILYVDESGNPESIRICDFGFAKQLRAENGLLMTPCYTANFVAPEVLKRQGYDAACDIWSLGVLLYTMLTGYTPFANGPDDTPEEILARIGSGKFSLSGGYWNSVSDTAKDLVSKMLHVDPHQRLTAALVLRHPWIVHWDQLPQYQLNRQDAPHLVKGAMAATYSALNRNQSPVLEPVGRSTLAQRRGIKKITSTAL
UniProt Q8WTQ7, sequence (whole entry, looked up): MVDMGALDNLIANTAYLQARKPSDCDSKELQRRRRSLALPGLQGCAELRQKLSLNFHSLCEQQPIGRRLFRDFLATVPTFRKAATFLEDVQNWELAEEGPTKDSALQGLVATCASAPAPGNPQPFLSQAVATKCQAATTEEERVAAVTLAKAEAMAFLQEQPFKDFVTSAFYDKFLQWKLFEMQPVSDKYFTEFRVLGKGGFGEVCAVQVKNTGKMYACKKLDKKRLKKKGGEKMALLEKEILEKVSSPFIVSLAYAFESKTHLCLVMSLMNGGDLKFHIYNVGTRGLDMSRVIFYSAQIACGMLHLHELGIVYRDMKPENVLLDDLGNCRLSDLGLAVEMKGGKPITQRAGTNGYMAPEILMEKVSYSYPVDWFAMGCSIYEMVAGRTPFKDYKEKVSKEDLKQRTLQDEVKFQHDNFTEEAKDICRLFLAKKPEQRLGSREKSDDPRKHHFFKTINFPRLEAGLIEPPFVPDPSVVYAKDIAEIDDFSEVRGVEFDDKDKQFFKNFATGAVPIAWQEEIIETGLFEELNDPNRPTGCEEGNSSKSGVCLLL
UniProt Q9H0K1, sequence (whole entry, looked up): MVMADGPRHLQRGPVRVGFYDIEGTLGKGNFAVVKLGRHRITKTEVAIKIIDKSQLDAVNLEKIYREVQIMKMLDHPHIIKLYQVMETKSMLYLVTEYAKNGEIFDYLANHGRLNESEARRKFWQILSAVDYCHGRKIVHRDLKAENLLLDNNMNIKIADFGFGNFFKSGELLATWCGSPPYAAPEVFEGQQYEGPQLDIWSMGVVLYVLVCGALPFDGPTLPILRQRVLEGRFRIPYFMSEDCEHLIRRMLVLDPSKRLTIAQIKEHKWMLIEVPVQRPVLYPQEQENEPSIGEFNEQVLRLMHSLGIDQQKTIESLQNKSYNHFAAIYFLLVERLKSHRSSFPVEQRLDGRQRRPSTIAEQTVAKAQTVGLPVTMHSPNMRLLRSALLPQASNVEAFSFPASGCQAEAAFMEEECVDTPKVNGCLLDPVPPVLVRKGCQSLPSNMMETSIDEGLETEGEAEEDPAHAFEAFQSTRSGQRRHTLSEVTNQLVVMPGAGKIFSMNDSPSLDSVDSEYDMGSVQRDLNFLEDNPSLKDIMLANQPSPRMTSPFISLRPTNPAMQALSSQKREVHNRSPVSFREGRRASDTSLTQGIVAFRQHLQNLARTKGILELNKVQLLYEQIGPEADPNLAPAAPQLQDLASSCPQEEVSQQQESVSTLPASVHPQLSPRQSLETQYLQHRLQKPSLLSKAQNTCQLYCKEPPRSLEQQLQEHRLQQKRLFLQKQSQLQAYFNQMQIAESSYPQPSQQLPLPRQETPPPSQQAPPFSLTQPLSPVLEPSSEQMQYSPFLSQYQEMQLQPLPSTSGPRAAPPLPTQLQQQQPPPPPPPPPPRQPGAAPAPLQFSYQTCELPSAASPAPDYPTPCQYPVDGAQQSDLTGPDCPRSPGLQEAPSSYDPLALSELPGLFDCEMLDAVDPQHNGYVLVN
UniProt P48736, sequence (whole entry, looked up): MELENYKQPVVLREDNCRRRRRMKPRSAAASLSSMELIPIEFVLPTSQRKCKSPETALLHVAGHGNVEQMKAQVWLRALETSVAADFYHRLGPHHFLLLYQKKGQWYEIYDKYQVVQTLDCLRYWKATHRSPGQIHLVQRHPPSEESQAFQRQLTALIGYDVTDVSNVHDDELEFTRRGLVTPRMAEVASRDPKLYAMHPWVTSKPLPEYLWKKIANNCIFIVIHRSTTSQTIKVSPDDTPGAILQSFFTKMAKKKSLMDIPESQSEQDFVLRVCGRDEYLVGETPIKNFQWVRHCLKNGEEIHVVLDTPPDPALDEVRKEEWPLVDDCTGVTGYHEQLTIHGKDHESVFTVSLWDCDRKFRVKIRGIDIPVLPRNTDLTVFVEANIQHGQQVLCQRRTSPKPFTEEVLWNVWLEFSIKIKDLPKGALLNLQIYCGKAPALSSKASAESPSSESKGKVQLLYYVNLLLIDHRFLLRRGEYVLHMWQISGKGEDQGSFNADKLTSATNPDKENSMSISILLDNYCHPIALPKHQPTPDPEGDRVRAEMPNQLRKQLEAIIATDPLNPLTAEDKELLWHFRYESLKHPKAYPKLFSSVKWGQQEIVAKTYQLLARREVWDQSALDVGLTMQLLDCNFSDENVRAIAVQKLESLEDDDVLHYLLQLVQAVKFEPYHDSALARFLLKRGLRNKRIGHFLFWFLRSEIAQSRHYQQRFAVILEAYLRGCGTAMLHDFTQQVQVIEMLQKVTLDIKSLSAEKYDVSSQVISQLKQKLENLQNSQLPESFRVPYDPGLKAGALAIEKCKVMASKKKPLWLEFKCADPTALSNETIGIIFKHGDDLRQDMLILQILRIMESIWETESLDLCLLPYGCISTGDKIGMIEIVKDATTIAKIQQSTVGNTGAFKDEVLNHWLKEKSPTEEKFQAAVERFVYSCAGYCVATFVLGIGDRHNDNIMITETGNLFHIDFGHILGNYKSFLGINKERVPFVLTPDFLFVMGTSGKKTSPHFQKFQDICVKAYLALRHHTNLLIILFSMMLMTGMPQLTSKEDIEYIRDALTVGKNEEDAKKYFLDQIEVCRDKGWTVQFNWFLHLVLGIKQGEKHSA

Sample 1
Cell line: HaCaT
Tested at: 100 µM
Time: 18 h
SMILES	viability [%]
C/C(O)=C(\C#N)C(=O)Nc1ccc(C(F)(F)F)cc1	82
CCCCCCCCCCCCCCCCOc1nc2ccc(C)cc2c(=O)o1	115
OC[C@@H](O)[C@@H](O)[C@H](O)[C@H](O)CO	110
CN1CCCCC1CCN1c2ccccc2Sc2ccc([S+](C)[O-])cc21 (stereo not drawn)	91.6
O=C(O[C@H]1CN2CCC1CC2)N1CCc2ccccc2[C@@H]1c1ccccc1	17.9

Sample 2
Compound: O=C(Nc1cnc(Oc2ccc(F)cc2)nc1)N1CCc2ncccc2[C@@H]1c1ccc(F)cc1
Observed: cell-free assay
Technique: competition with immobilised ligand
Tested at: 1 µM
target	remaining binding [%]
Dual specificity protein kinase CLK3 (CLK3, Homo sapiens, UniProt P49761)	88
Rhodopsin kinase GRK7 (GRK7, Homo sapiens, UniProt Q8WTQ7)	100
Cyclin-dependent kinase 8 (CDK8, Homo sapiens, UniProt P49336)	70
Proto-oncogene tyrosine-protein kinase receptor Ret (RET, Homo sapiens, UniProt P07949)	94
Serine/threonine-protein kinase RIO2 (RIOK2, Homo sapiens, UniProt Q9BVS4)	96
Serine/threonine-protein kinase PAK 4 (PAK4, Homo sapiens, UniProt O96013)	82
Ephrin type-A receptor 3 (EPHA3, Homo sapiens, UniProt P29320)	82
Activin receptor type-1 (ACVR1, Homo sapiens, UniProt Q04771)	97
Mitogen-activated protein kinase kinase kinase kinase 4 (MAP4K4, Homo sapiens, UniProt O95819)	86
Mitogen-activated protein kinase kinase kinase 2 (MAP3K2, Homo sapiens, UniProt Q9Y2U5)	99
Phosphatidylinositol 4,5-bisphosphate 3-kinase catalytic subunit gamma isoform (PIK3CG, Homo sapiens, UniProt P48736)	85
Serine/threonine-protein kinase PAK 6 (PAK6, Homo sapiens, UniProt Q9NQU5)	100
Serine/threonine-protein kinase 33 (STK33, Homo sapiens, UniProt Q9BYT3)	69
Cyclin-dependent kinase 16 (CDK16, Homo sapiens, UniProt Q00536)	75
Epidermal growth factor receptor (EGFR, Homo sapiens, UniProt P00533)	100
Ephrin type-A receptor 6 (EPHA6, Homo sapiens, UniProt Q9UF33)	100
Tyrosine-protein kinase Lck (LCK, Homo sapiens, UniProt P06239)	83
Phosphatidylinositol 4,5-bisphosphate 3-kinase catalytic subunit alpha isoform (PIK3CA, Homo sapiens, UniProt P42336)	100
Interleukin-1 receptor-associated kinase 1 (IRAK1, Homo sapiens, UniProt P51617)	88
Phosphatidylinositol 4,5-bisphosphate 3-kinase catalytic subunit alpha isoform (PIK3CA, Homo sapiens, UniProt P42336, C420R)	100

Sample 3
SMILES: CC#CC(=O)Nc1cc2c(Nc3ccc(F)c(Cl)c3)ncnc2cn1
Observed: enzyme activity
Action: inhibitor
Tested at: 0.5 µM
Reference: control
target	remaining activity [%]
Ephrin type-A receptor 2 (EPHA2, Homo sapiens, UniProt P29317)	103
SRSF protein kinase 1 (SRPK1, Homo sapiens, UniProt Q96SB4)	94.8
Casein kinase I isoform delta (CSNK1D, Homo sapiens, UniProt P48730)	99.3
Casein kinase I isoform epsilon (CSNK1E, Homo sapiens, UniProt P49674)	93.6
Ribosomal protein S6 kinase alpha-3 (RPS6KA3, Homo sapiens, UniProt P51812)	97.5
Serine/threonine-protein kinase PAK 1 (PAK1, Homo sapiens, UniProt Q13153)	94.5
Vascular endothelial growth factor receptor 1 (FLT1, Homo sapiens, UniProt P17948)	100
Calcium/calmodulin-dependent protein kinase kinase 1 (CAMKK1, Homo sapiens, UniProt Q8N5S9)	124
Serine/threonine-protein kinase SIK2 (SIK2, Homo sapiens, UniProt Q9H0K1)	81.3
Protein kinase C zeta type (PRKCZ, Homo sapiens, UniProt Q05513)	114
Muscle, skeletal receptor tyrosine-protein kinase (MUSK, Homo sapiens, UniProt O15146)	79.6
Calcium/calmodulin-dependent protein kinase type 1 (CAMK1, Homo sapiens, UniProt Q14012)	97.9
Serine/threonine-protein kinase PAK 6 (PAK6, Homo sapiens, UniProt Q9NQU5)	96.9
Mitogen-activated protein kinase kinase kinase 20 (MAP3K20, Homo sapiens, UniProt Q9NYL2)	85.8
Tyrosine-protein kinase receptor TYRO3 (TYRO3, Homo sapiens, UniProt Q06418)	100
Cyclin-dependent kinase 2, with cyclin E (CDK2, Homo sapiens, UniProt P24941)	98.1
Serine/threonine-protein kinase Sgk2 (SGK2, Homo sapiens, UniProt Q9HBY8)	98.3
Dual specificity protein kinase CLK2 (CLK2, Homo sapiens, UniProt P49760)	100
Tyrosine-protein kinase JAK1 (JAK1, Homo sapiens, UniProt P23458)	104
Tyrosine-protein kinase Tec (TEC, Homo sapiens, UniProt P42680)	52.1
Insulin-like growth factor 1 receptor (IGF1R, Homo sapiens, UniProt P08069)	100
Protein kinase C theta type (PRKCQ, Homo sapiens, UniProt Q04759)	89.3

Sample 4
Cell line: mouse MPNST tumor cells
Technique: high-content nuclear imaging
Refers to: cell number
Tested at: 10 µM
Time: 12 h
Setting: mean of 2 replicates
Reference: plate mean
Direction: higher = more cells
SMILES	nuclei count [z-score]
O=C(N[C@H](CO)[C@H](O)c1ccc([N+](=O)[O-])cc1)C(Cl)Cl	2.58
FC(F)(F)c1cc(NC(=S)Nc2ccc(Br)cc2-c2nn[nH]n2)cc(C(F)(F)F)c1	1.16
C=CC1=C(C(=O)O)N2C(=O)[C@@H](NC(=O)/C(=N\OCC(=O)O)c3csc(N)n3)[C@H]2SC1	-0.343
Cc1cc(-n2c(=O)[nH]c(=O)n(C)c2=O)ccc1Oc1ccc(SC(F)(F)F)cc1	0.567
COC(=O)c1ccc(N2CCN(C)CC2)c(NC(=O)c2cccc(OC)c2)c1	0.267
CCOc1ccc(NC(=O)CC(C)O)cc1 (stereo not drawn)	-0.0834
CSc1nc2cc(Cl)c(Oc3cccc(Cl)c3Cl)cc2[nH]1	-0.452
OC(CCN1CCCCC1)(c1ccccc1)c1ccccc1	1.84
Cc1ccc(C(=O)N(CCCN)[C@@H](c2nc3cc(Cl)ccc3c(=O)n2Cc2ccccc2)C(C)C)cc1	-5.41
CCc1ccc(NC(=O)Nc2c[nH]c3ccccc23)cc1	-3.86

Repeated from above (sample 4):
SMILES	nuclei count [z-score]
CSc1nc2cc(Cl)c(Oc3cccc(Cl)c3Cl)cc2[nH]1	-0.452
OC(CCN1CCCCC1)(c1ccccc1)c1ccccc1	1.84
Cc1ccc(C(=O)N(CCCN)[C@@H](c2nc3cc(Cl)ccc3c(=O)n2Cc2ccccc2)C(C)C)cc1	-5.41
